Measured values collected from several papers.
Lines come from different studies, so protocols differ. ± marks the error that the study gave.

SMILES	test	system	conditions	terminal half-life [h]
CN(CC#N)C(=O)C[C@H](Nc1nc2ccccc2[nH]1)c1cccc(C(F)(F)F)c1	–	human	intravenous infusion, 3 mg/kg, 1 mg/mL formulation	6.12 ± 0.37
C#C[C@]1(CO)O[C@@H](n2cnc3c(N)nc(F)nc32)C[C@@H]1O	–	human, plasma	oral	50 to 60
C#C[C@]1(O)CC[C@H]2[C@@H]3CCc4cc(O)ccc4[C@H]3CC[C@@]21C	–	human female	oral, single dose oral contraceptive, added: ritlecitinib 50 mg once daily multiple doses	19.5 ± 4.9
CCCn1cc(C)c2c(=O)[nH]c(-c3cc(S(=O)(=O)N4CCN(CC)CC4)ccc3OCC)nc21	LC-MS/MS	human, plasma	dose not given, mean, crossover trial	4.6
COc1nnc2ccc(N3CCC(c4ccc(OCCN5CCN(C)C(=O)[C@H]5C)cc4)CC3)nn12	–	human, plasma	oral, 10 mg once daily, single dose, monotherapy	4.6
Cc1ccc(=O)n(-c2ccccc2)c1	–	healthy human	oral, 600 mg single, alone	2.51
CN1C(=O)[C@@H](NC(=O)c2nnc(Cc3ccccc3)[nH]2)COc2cccnc21	–	healthy human, fasted, plasma	oral, 200 mg single dose, geometric mean	6.34
Cc1[nH]c(/C=C2\C(=O)Nc3ccc(F)cc32)c(C)c1C(=O)N[C@H]1CCN(C(=O)N(C)C)C1	–	human patients, plasma	oral, 150 mg single dose, added: everolimus 5 mg	4.8 ± 0.6
CC[C@H](C)[C@H](NC(=O)[C@H](Cc1ccccc1)NC(=O)[C@H](CCC(=O)O)NC(=O)[C@H](CCCCNC(=O)COCCOCCNC(=O)COCCOCCNC(=O)CC[C@H](NC(=O)CCCCCCCCCCCCCCCCC(=O)O)C(=O)O)NC(=O)[C@H](C)NC(=O)[C@H](C)NC(=O)[C@H](CCC(N)=O)NC(=O)CNC(=O)[C@H](CCC(=O)O)NC(=O)[C@H](CC(C)C)NC(=O)[C@H](Cc1ccc(O)cc1)NC(=O)[C@H](CO)NC(=O)[C@H](CO)NC(=O)[C@@H](NC(=O)[C@H](CC(=O)O)NC(=O)[C@H](CO)NC(=O)[C@@H](NC(=O)[C@H](Cc1ccccc1)NC(=O)[C@@H](NC(=O)CNC(=O)[C@H](CCC(=O)O)NC(=O)C(C)(C)NC(=O)[C@@H](N)Cc1cnc[nH]1)[C@@H](C)O)[C@@H](C)O)C(C)C)C(=O)N[C@@H](C)C(=O)N[C@@H](Cc1c[nH]c2ccccc12)C(=O)N[C@@H](CC(C)C)C(=O)N[C@H](C(=O)N[C@@H](CCCNC(=N)N)C(=O)NCC(=O)N[C@@H](CCCNC(=N)N)C(=O)NCC(=O)O)C(C)C	–	human, plasma	oral, 14 mg once daily, harmonic mean	153
CCN1CCN(Cc2ccc(Nc3ncc(F)c(-c4cc(F)c5nc6n(c5c4)[C@H](C)CCC6)n3)nc2)CC1	–	human, phase Ia	50 to 500 mg, single dose	35.9 to 51.1
C#C[C@]1(O)CC[C@H]2[C@@H]3CCC4=CC(=O)CC[C@@H]4[C@H]3CC[C@@]21CC	–	human female	oral, single dose oral contraceptive, cpd alone	37.7 ± 6.5
Cc1cc(-c2nccc3c2ccn3CC(=O)Nc2ccc(-c3cnccn3)cn2)ccn1	–	human, plasma	oral, 7 mg single dose, geometric mean	10.8
C[C@@H](c1ccc2nccn2c1)n1nnc2ncc(-c3cnn(C)c3)nc21	noncompartmental analysis	human, plasma	oral, dose not given, cycle 2 day 1, multiple dosing	3.32
C[C@@]1(c2cc(NC(=O)c3ccc(C#N)cn3)ccc2F)C=CSC(N)=N1	–	elderly humans, both sexes, plasma	oral, 150 mg single dose, mean	15.1
Cc1cc(Nc2ccc(S(F)(F)(F)(F)F)cc2)n2nc(C(C)(F)F)nc2n1	LC-MS/MS	human vivax malaria patients, plasma	oral, 400 mg, mean	115
Nc1nc2cc(-c3ccc4ncc(C(=O)N5CCOCC5)n4c3)ccc2o1	–	human, plasma	oral	6 to 14
CC1(C)CC[C@]2(NC(=O)C(C)(F)F)CC[C@]3(C)[C@H](C(=O)C=C4[C@@]5(C)C=C(C#N)C(=O)C(C)(C)[C@@H]5CC[C@]43C)[C@@H]2C1	–	human, plasma	oral, 150 mg single dose, alone, geometric mean	66.7
Cc1cc(-c2nnc(N)nc2-c2ccc(F)cc2)cc(Cl)n1	–	human patients, plasma	oral, 150 mg capsule, single dose, arithmetic mean	8.05

Some of these lines once more:
SMILES	test	system	conditions	terminal half-life [h]
Nc1nc2cc(-c3ccc4ncc(C(=O)N5CCOCC5)n4c3)ccc2o1	–	human, plasma	oral	6 to 14
